Measured values gathered from unrelated publications.
Numbered parts are unrelated; each lists some results of a single study. Substitutions count along the parent as printed.

Sample 1 — method: protein binding microarray; form: double-stranded DNA, one strand shown; matrix: in vitro; tested at: not given; reference: not given; direction: higher = stronger binding
Target: Histone acetyltransferase KAT6A, winged helix 2, GST fusion (KAT6A, Homo sapiens, UniProt Q92794, residues 85-181)
Setting: 8-mer, flanks averaged, mean of 2 arrays, mostly near background
Target sequence (chain): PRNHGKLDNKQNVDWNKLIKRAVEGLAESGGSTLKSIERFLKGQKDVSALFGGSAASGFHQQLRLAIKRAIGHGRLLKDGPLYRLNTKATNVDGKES
`ATTTTGTA` gave an E-score of 0.008.
`GGTTGTGA` gave an E-score of -0.0527.
With `CATGAGGC` the E-score was 0.129.
`TCGGATAA` gave an E-score of 0.00832.
`CGCCGAAC` has an E-score of 0.103.
The E-score of `AAGACAGG` is reported as 0.0795.
With `ATACATTA` the E-score was 0.051.
For `AACGGCAA`, the E-score was 0.0257.
`AGATGAGA` gave an E-score of -0.108.

Sample 2 — method: RNA Bind-n-Seq; form: RNA; matrix: in vitro; tested at: 365 nM; reference: no-protein control; direction: higher = stronger binding
Target: RNA binding protein fox-1 homolog 2, RRM domain, GST-SBP tag (RBFOX2, Homo sapiens, UniProt O43251-10, residues 100-194)
Setting: natural RNA segment, single round, ends assumed
Target sequence (chain): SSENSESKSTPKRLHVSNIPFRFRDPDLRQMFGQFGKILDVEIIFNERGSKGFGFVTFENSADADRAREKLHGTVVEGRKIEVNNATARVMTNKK
For `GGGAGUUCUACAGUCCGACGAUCAUCCCCGGCCCCGGCUGUGACUGCCCUGUUUCACCCCUGCUGUGUCCCAUCCCCCGUCUGUCCACUAACUGUACCGCACCGGCCAUUAAAAGAUGAAGGCAGACCGCUGCUGGAAUUCUCGGGUGCCAA`, “RBNS enrichment (R)” read 0.626.
Under “RBNS enrichment (R)”, `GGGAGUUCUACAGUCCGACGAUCACACUAUGCUUUUGGGUGUUAGACUGAAAUAUUUUAAGAGUAUUUAACCUUUCCAGUAUUCUGUUUCACGCUUAGAUGGAAAUGUAUCUUAUGAAUAGAGACAUAUUAAAUGGAAUUCUCGGGUGCCAA` is recorded as 0.574.
For `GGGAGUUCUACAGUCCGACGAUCCAUAUACUGUACAUCAAGUAUAGGAAAUGUGCACUGAGUAUACUAAAAGUAUAUGCAGGAUUAAUUUUACAUAAAGGCCUCUUCUGUAACAUUUCUCUAUUUUUUGAAAUUGGAAUUCUCGGGUGCCAA`, “RBNS enrichment (R)” read 0.485.
For `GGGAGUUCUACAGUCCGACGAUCCUAAUAAUCCUUUAGUUACUCAGCUGCUCCAGGGCAAAGAUGUUCCCUUGGAGCAAAUUCUGCCUAAGCCUCUCACCAAAAUUGAAAUGAAAACAGUUCCACUGACUACAUGGAAUUCUCGGGUGCCAA`, “RBNS enrichment (R)” read 0.665.
Under “RBNS enrichment (R)”, `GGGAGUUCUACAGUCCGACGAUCAGAAAUACCUGACUCCUGUACCACAGUCCAGUUUGUCCCAGUAGCAGGGACACCAAGGCCAAUGGGUUAUCUGGACCAAAGGUGGGGUGGAGGGCCUAGGUGGUAUCUCCUGGAAUUCUCGGGUGCCAA` is recorded as 0.334.
Under “RBNS enrichment (R)”, `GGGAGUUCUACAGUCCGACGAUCAAUACCAACCAGAAAUUGGCAUUUAUAAACCUGUUAAGAGACUUUAAGCAUGCUUCAAGAGGCAGUUGACCCACUGGAAUUUCUAUAAGGCUGGUACCCUUCCCAGAGUUUGGAAUUCUCGGGUGCCAA` is recorded as 1.59.
Under “RBNS enrichment (R)”, `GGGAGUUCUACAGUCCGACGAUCUCACAUGAUGUCGAUGUCCCAAGGUGAAGGCAACGUCAGGAGUGCCGCAUGUAGGGAGAUGGAGGGAGUAGGCAAUGGGGCCAAGGAAAACUGAGUUCGAUGAAAGAAGAUGGAAUUCUCGGGUGCCAA` is recorded as 1.62.

Sample 3 — target: CCNA1, cyclin fold, Cln2 fusion (human); method: yeast growth competition, sequencing; matrix: yeast; setting: weak parent motif; reference: not given; direction: higher = stronger binding
Parent: SCAPER docking peptide (human); SNARRSLNFGGST
`N8V`: “normalised enrichment score” 0.308.
`S12V` — result for “normalised enrichment score”: 0.353.
For `G11C`, “normalised enrichment score” read 0.601.
`F9Y` — result for “normalised enrichment score”: 0.211.
`S6N`: “normalised enrichment score” 0.413.
`G11T` — result for “normalised enrichment score”: 0.746.
`A3C` — result for “normalised enrichment score”: 0.416.
`N8L`: “normalised enrichment score” 0.213.
`A3M` — result for “normalised enrichment score”: 0.528.

Mixed results
With `PhoQ, residues 284 288 289 292 302 303 AGHLVA` the fold induction was 11.2 (PhoP, residues 12 14 15 18 19 MHTVL (Escherichia coli, UniProt P23836); Sort-seq, item: YFP reporter; E. coli; PhoQ-PhoP variant library, with: 10 µM Mg2+; reference: high Mg2+ state, higher = stronger signaling).

Repeated from above (sample 1):
`CGCCGAAC` has an E-score of 0.103.
The E-score of `AAGACAGG` is reported as 0.0795.
With `ATACATTA` the E-score was 0.051.
